Assay results gathered from unrelated publications.
A part holds a random share of what one study measured. Several values in a cell are separate wells, animals, samples, runs or records.
Chain of UniProt P08631 (whole entry, looked up): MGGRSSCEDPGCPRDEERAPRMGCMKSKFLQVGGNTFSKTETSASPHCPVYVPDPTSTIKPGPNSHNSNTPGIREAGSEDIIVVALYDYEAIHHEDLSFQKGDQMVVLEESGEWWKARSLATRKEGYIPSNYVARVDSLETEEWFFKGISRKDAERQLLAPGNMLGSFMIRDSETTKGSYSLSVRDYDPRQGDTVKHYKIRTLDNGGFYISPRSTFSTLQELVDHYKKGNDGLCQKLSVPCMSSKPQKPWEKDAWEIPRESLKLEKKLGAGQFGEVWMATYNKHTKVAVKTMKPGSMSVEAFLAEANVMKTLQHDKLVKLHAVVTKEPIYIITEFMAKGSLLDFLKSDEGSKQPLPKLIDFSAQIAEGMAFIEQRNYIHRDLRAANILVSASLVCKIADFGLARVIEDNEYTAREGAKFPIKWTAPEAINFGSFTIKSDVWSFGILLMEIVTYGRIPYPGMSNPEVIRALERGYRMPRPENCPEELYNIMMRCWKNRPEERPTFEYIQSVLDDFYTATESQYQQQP
Chain of UniProt Q9H1R3 (whole entry, looked up): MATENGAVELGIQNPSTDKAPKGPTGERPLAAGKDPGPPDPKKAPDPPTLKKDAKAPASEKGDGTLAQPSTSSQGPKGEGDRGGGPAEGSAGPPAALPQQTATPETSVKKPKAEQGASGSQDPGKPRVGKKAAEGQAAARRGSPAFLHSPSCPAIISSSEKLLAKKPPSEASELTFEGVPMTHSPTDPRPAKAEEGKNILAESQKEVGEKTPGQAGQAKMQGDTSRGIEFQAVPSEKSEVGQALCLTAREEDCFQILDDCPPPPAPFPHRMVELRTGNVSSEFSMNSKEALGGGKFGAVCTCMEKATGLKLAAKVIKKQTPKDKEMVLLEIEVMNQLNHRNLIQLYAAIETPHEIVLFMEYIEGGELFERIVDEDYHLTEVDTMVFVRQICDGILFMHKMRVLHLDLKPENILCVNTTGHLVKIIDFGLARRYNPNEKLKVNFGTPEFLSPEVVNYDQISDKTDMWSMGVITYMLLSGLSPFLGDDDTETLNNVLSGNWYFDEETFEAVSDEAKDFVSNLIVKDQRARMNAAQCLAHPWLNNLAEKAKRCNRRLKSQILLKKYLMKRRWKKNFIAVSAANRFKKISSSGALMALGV
Chain of UniProt P42336 (whole entry, unmodified, looked up): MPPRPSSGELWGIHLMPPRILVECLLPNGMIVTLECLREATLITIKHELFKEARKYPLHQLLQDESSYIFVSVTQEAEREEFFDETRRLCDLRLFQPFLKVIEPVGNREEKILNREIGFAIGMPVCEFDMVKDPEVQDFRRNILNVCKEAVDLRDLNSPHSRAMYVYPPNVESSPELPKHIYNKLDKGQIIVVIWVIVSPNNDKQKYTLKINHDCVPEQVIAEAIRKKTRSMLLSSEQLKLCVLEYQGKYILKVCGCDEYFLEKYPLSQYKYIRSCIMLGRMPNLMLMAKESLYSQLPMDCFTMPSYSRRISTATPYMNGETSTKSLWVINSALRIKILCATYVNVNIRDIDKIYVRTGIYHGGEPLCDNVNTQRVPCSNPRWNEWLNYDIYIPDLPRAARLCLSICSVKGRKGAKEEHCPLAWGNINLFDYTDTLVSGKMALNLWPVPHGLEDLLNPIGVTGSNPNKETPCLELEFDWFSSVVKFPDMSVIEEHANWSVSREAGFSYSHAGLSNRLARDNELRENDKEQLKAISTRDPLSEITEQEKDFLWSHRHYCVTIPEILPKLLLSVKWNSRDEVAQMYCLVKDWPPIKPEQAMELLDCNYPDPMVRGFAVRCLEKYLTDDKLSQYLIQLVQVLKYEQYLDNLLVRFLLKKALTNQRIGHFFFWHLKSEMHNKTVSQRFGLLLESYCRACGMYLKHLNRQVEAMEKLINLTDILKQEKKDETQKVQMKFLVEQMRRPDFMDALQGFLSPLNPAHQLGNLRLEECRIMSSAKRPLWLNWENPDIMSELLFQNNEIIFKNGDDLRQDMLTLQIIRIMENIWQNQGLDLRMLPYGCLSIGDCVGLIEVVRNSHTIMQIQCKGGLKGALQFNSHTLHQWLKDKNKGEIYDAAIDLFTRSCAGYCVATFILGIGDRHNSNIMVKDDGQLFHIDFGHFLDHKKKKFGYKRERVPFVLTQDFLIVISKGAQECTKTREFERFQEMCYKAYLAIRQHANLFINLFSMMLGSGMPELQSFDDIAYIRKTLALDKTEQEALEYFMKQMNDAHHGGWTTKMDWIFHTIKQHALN
Chain of UniProt P00519 (whole entry, unmodified, looked up): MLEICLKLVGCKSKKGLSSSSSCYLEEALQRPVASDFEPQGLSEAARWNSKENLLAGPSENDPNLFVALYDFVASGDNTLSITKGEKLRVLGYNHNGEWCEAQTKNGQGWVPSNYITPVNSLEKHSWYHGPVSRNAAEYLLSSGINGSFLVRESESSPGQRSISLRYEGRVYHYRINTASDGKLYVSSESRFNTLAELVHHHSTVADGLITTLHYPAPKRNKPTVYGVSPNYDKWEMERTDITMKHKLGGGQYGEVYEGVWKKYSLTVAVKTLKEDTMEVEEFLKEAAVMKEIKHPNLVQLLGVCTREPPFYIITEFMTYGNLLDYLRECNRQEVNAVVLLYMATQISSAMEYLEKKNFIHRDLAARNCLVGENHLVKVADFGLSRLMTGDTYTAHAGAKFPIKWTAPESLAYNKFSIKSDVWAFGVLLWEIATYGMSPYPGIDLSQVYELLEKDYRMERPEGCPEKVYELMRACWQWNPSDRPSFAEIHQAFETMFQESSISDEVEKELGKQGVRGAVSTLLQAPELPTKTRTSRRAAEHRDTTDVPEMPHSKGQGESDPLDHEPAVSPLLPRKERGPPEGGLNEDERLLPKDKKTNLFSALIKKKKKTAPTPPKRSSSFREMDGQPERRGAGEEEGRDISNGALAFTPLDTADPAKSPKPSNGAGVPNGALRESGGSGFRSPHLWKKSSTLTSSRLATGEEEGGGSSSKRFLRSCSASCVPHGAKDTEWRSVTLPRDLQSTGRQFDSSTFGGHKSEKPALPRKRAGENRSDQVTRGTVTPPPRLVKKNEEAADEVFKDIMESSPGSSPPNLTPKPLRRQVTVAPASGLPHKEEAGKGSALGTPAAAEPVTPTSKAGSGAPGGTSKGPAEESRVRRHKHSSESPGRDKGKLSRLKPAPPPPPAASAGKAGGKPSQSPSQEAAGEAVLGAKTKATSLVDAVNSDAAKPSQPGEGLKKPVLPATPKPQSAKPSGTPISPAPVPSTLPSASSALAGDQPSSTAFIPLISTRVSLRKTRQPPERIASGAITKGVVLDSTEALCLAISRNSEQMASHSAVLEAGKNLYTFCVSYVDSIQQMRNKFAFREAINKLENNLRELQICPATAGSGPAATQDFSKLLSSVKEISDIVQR
Chain of UniProt P36896 (whole entry, looked up): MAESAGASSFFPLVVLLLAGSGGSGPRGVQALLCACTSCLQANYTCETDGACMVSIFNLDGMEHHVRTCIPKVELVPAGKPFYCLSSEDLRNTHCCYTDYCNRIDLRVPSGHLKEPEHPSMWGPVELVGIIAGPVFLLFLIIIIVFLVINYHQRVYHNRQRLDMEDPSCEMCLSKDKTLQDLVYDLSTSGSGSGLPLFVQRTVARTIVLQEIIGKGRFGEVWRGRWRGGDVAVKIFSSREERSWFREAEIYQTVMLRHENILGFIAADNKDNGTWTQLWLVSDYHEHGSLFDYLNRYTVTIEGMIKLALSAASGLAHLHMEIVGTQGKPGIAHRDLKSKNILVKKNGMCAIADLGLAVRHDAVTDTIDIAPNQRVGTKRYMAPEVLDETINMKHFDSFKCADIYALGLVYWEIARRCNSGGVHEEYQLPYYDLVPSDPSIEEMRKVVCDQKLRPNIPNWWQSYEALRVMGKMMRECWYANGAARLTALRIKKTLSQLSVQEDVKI
Chain of UniProt Q6P3R8 (whole entry, looked up): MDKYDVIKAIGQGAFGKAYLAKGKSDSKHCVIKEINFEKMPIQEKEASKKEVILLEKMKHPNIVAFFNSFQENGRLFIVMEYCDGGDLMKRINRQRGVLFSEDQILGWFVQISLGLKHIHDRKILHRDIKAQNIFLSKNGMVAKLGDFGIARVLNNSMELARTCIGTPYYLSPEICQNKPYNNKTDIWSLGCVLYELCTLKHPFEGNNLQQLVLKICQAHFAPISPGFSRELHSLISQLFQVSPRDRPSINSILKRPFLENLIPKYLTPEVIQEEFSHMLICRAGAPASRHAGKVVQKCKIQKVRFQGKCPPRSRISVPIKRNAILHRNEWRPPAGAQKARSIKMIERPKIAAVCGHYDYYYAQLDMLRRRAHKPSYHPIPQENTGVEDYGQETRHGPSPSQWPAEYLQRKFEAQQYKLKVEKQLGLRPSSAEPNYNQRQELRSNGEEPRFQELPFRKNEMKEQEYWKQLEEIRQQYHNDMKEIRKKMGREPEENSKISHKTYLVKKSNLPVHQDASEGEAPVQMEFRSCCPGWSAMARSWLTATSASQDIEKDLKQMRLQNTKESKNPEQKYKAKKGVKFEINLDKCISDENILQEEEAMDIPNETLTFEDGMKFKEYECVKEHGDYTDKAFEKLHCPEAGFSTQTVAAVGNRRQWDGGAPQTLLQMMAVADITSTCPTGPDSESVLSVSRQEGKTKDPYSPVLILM
Chain of UniProt Q00537 (whole entry, looked up): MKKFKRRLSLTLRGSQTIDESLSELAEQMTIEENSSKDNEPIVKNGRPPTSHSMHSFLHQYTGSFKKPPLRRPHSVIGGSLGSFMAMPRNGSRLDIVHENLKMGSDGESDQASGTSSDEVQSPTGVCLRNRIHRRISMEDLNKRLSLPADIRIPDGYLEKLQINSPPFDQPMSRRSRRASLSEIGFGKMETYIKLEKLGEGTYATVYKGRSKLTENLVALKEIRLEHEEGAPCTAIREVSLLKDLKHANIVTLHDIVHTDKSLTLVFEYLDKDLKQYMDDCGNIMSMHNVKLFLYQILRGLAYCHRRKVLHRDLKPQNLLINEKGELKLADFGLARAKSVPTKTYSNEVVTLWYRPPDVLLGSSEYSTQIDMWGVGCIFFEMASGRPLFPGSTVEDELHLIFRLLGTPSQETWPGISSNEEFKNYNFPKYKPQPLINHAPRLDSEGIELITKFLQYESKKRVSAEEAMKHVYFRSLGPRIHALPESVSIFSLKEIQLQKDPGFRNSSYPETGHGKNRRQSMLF

Set 1
Structure (SMILES): CC(=O)Nc1c(C(C)=O)c(=O)n(C)c2nc(-c3ccc(Cl)cc3Cl)c(-c3ccc(Cl)cc3)cc12
Read-out: cell-free assay
Technique: competition with immobilised ligand
Concentration: 1 µM
The remaining binding was 100% (Ribosomal protein S6 kinase alpha-2, N-terminal kinase domain (RPS6KA2, Homo sapiens, UniProt Q15349)).
It gave 100% for remaining binding (Mitogen-activated protein kinase kinase kinase 19 (MAP3K19, Homo sapiens, UniProt Q56UN5)).
The remaining binding was 100% (Receptor-type tyrosine-protein kinase FLT3 (FLT3, Homo sapiens, UniProt P36888, D835V/ITD)).
For Casein kinase I isoform delta (CSNK1D, Homo sapiens, UniProt P48730): remaining binding read 100%.
The remaining binding was 100% (Phosphatidylinositol 4,5-bisphosphate 3-kinase catalytic subunit alpha isoform (PIK3CA, Homo sapiens, UniProt P42336, Q546K)).
Serine/threonine-protein kinase WNK3 (WNK3, Homo sapiens, UniProt Q9BYP7) — remaining binding: 100%.
For Bone morphogenetic protein receptor type-1B (BMPR1B, Homo sapiens, UniProt O00238): remaining binding read 100%.
It gave 100% for remaining binding (Dual specificity protein kinase TTK (TTK, Homo sapiens, UniProt P33981)).
Myosin light chain kinase 2, skeletal/cardiac muscle (MYLK2, Homo sapiens, UniProt Q9H1R3) — remaining binding: 100%.
Cyclin-dependent kinase 17 (CDK17, Homo sapiens, UniProt Q00537) — remaining binding: 100%.
Activin receptor type-1B (ACVR1B, Homo sapiens, UniProt P36896) — remaining binding: 94%.
Tyrosine-protein kinase ABL1, non-phosphorylated (ABL1, Homo sapiens, UniProt P00519, F317L) — remaining binding: 100%.
Epidermal growth factor receptor (EGFR, Homo sapiens, UniProt P00533, L858R) — remaining binding: 100%.
The remaining binding was 100% (Serine/threonine-protein kinase Nek5 (NEK5, Homo sapiens, UniProt Q6P3R8)).
For Serine/threonine-protein kinase 32C (STK32C, Homo sapiens, UniProt Q86UX6): remaining binding read 100%.
Tyrosine-protein kinase HCK (HCK, Homo sapiens, UniProt P08631) — remaining binding: 100%.
It gave 100% for remaining binding (Ribosomal protein S6 kinase alpha-4, N-terminal kinase domain (RPS6KA4, Homo sapiens, UniProt O75676)).

Set 2
Host: human
Sample: microsomes or S9
Concentration: 2 µM
Time: 0.5 h
For `Cn1c(=O)c2c(-c3ccccc3Br)n(-c3ccc4c(c3)nc(CO)n4C)cc2n(C)c1=O`, the remaining compound was 27%.
With `COc1cc(C)c(Cl)cc1S(=O)(=O)Nc1ccc(Nc2cc(N(C)C)nc(C)n2)cc1` the remaining compound was 76.8%.
With `O=c1oc2ncn(-c3ccccc3)c2c2ccccc12` the remaining compound was 23.1%.
With `Cc1sc2c(C3CCN(C(=O)C(C)NC4CCS(=O)(=O)C4)CC3)nc(C)n2c1C` (stereo not shown) the remaining compound was 51.3%.
`O=c1[nH]c2c(S(=O)(=O)c3ccc(Br)cc3)nnn2c2ccsc12` gave a remaining compound of 77.8%.
For `CCCN(c1nc2nc(C)c(Cl)c(C)n2n1)S(=O)(=O)c1ccccc1`, the remaining compound was 40.7%.
The remaining compound of `Cc1ncoc1C(=O)N1C2CCC1Cn1c(nnc1-c1ccccc1)C2` (stereo not shown) is reported as 88.1%.
`CC(C)n1cc(CNS(=O)(=O)c2cc(F)cc(Cl)c2)nn1` has a remaining compound of 22.7%.

Set 3
Cell line: mouse MPNST tumor cells
Technique: high-content immunofluorescence imaging
Measured: nuclear SOX9
Concentration: 10 µM
Time: 12 h
Notes: mean of 2 replicates
Relative to: DMSO control
Reading: higher = more nuclear SOX9
`CC(C)c1ccccc1S(=O)(=O)c1cc(N)c2ncccc2c1[N+](=O)[O-]` — result for “nuclear SOX9 intensity”: 65.8 % of DMSO.
`CCOC(=O)C1=C(N2CCCCC2)C2(CC1=O)C(=O)N=C1C(C)=CC=CN12` (stereo not shown) — result for “nuclear SOX9 intensity”: 94.3 % of DMSO.
Under “nuclear SOX9 intensity”, `CN1CCCC1CCn1cc(C2=C(c3c[nH]c4ccccc34)C(=O)NC2=O)c2ccccc21` (stereo not shown) is recorded as 113 % of DMSO.
For `COc1ccccc1C(=O)Nc1cc2c(cc1N1CCCC1)n(C)c(=O)n2C`, “nuclear SOX9 intensity” read 128 % of DMSO and 134 % of DMSO.
For `Cc1cn2c(N)c(Cl)cc(C(=O)NCC3CCN(CC(C)C)CC3)c2n1`, “nuclear SOX9 intensity” read 105 % of DMSO.
Under “nuclear SOX9 intensity”, `O=C(NNc1nc2cc(F)ccc2n2cccc12)c1cnccn1` is recorded as 153 % of DMSO.
`Cc1ccc(-c2ncc[nH]2)cc1NC(=O)c1ccc(OCc2ccccn2)cc1` — result for “nuclear SOX9 intensity”: 105 % of DMSO.
`Cc1ccc2cc(-c3c(C)ccc(C(=O)c4c(-c5ccccc5)n(C)n(-c5ccccc5)c4=O)c3N)ccc2n1`: “nuclear SOX9 intensity” 125 % of DMSO.

Set 4
Target: Tyrosine-protein kinase HCK (HCK, Homo sapiens, UniProt P08631)
Read-out: enzyme activity
Action: inhibitor
Concentration: 0.5 µM
Relative to: control
The remaining activity of `O=C(O)/C=C/c1cc(Br)c(Br)c(Br)c1Br` is reported as 99.9%.
`O=c1c(-c2ccc(F)cc2)c(-c2ccncc2)[nH]n1-c1ccc(Cl)cc1` has a remaining activity of 91.1%.
With `NC(=O)c1cccc(-c2cc(Nc3ccc(OC(F)(F)F)cc3)ncn2)c1` the remaining activity was 92.9%.
With `N#C/C(=C(/N)SC1C=CC=CC1)c1cccc(C(O)c2ccncc2)c1` (stereo not shown) the remaining activity was 97.6%.
For `C[C@@H](N)[C@H]1CC[C@H](C(=O)Nc2ccncc2)CC1`, the remaining activity was 97.9%.
The remaining activity of `O=Nc1c(-c2c(O)[nH]c3ccccc23)[nH]c2ccccc12` is reported as 60.2%.
For `N#CC(c1ccnc(NCCc2cccnc2)n1)c1nc2ccccc2s1` (stereo not shown), the remaining activity was 92.2%.
For `Clc1ccc(Nc2nnc(Cc3ccncc3)c3ccccc23)cc1`, the remaining activity was 89.5%.
The remaining activity of `c1cc(-c2cnn3cc(-c4ccc(OCCN5CCCCC5)cc4)cnc23)ccn1` is reported as 62.6%.
`CC(C)(C)c1nc2c3cc[nH]c(=O)c3c3cc(F)ccc3c2[nH]1` has a remaining activity of 84.8%.

Some of these lines once more (set 3):
`Cc1ccc(-c2ncc[nH]2)cc1NC(=O)c1ccc(OCc2ccccn2)cc1` — result for “nuclear SOX9 intensity”: 105 % of DMSO.
`CCOC(=O)C1=C(N2CCCCC2)C2(CC1=O)C(=O)N=C1C(C)=CC=CN12` (stereo not shown) — result for “nuclear SOX9 intensity”: 94.3 % of DMSO.
`CC(C)c1ccccc1S(=O)(=O)c1cc(N)c2ncccc2c1[N+](=O)[O-]` — result for “nuclear SOX9 intensity”: 65.8 % of DMSO.
